{"data": "Measurements gathered from unrelated publications", "note": "Parts stem from different laboratories: compare values within a part only."}
{"data": "Block 1", "target": "Histone acetyltransferase KAT6A, both winged helices, GST fusion (KAT6A, Homo sapiens, UniProt Q92794, residues 1-181)", "method": "protein binding microarray", "molecule type": "double-stranded DNA, one strand shown", "matrix": "in vitro", "tested at": "not given", "notes": "8-mer, flanks averaged, mean of 2 arrays, mostly near background", "relative to": "not given", "direction": "higher = stronger binding", "Construct (chain)": "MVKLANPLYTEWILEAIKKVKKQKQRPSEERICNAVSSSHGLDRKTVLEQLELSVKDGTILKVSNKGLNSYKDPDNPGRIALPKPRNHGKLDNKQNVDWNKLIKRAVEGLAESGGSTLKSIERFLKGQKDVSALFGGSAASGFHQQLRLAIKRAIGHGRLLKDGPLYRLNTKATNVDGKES"}
{"Oligonucleotide": "AATCGGAG", "E-score": -0.084}
{"Oligonucleotide": "ATCCGATG", "E-score": 0.0544}
{"Oligonucleotide": "AGAGAAGA", "E-score": -0.127}
{"data": "Block 2", "target": "Sal-like protein 4, full length isoform A (SALL4, Homo sapiens, UniProt Q9UJQ4, residues 1-1053)", "method": "universal PBM", "molecule type": "double-stranded DNA, one strand shown", "matrix": "in vitro", "tested at": "600 nM", "notes": "8-mer, flanks averaged, mean of replicates", "direction": "higher = stronger binding", "sequence of UniProt Q9UJQ4 (whole entry, looked up)": "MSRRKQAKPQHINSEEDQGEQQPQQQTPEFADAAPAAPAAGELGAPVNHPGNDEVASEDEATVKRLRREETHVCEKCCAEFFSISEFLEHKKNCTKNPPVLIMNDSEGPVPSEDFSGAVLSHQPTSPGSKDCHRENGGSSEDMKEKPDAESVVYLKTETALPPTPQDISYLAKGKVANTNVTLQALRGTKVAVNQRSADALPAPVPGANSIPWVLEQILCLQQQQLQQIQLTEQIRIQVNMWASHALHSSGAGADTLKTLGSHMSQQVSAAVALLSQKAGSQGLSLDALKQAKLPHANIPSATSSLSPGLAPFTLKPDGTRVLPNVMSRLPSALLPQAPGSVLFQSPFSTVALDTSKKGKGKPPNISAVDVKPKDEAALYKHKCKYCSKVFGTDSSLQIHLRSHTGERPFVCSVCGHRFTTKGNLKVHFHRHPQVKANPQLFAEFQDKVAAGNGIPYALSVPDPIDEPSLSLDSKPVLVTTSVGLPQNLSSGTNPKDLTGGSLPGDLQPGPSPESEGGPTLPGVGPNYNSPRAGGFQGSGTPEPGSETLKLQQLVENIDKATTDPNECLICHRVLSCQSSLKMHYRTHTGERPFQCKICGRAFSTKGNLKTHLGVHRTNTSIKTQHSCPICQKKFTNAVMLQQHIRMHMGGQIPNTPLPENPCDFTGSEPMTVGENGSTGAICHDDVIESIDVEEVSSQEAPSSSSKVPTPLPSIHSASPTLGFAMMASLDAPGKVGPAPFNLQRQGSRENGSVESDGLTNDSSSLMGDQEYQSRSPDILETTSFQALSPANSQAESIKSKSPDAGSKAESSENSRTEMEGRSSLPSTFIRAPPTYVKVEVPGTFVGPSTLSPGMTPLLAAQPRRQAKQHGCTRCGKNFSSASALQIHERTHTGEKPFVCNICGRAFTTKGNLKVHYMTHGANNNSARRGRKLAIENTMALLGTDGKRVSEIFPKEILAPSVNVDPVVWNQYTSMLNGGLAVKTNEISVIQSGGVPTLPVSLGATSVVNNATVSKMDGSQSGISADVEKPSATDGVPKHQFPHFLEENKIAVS"}
{"Oligonucleotide": "CACGTCGA", "E-score": -0.224}
{"Oligonucleotide": "CGTTTGGC", "E-score": -0.0869}
{"Oligonucleotide": "CGACTCCA", "E-score": -0.198}
{"Oligonucleotide": "CCCATGTC", "E-score": -0.187}
{"data": "Block 3", "target": "Interferon regulatory factor 3, full length, phosphomimetic (IRF3, Homo sapiens, UniProt Q14653, residues 1-427, S386D/S396D/S398D/S402D/T404D/S405D)", "method": "protein-binding microarray", "molecule type": "double-stranded DNA, one strand shown", "matrix": "in vitro", "tested at": "2540 nM top", "notes": "60-bp whole probe", "together with": "salmon DNA 0.4 mg/ml", "relative to": "random background probes", "direction": "higher = stronger binding", "Construct (chain)": "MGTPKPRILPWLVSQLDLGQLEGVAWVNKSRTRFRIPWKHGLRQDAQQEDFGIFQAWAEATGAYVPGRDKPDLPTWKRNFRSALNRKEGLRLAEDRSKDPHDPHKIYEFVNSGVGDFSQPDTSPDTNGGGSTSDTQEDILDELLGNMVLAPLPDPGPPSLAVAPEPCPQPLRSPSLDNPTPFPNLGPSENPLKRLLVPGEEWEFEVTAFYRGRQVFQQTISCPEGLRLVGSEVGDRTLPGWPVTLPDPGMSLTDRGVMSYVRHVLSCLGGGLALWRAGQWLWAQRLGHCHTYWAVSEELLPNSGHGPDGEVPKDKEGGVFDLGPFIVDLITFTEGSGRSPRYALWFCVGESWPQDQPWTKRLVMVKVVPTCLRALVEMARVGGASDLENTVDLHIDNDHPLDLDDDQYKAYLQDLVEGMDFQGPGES"}
{"Oligonucleotide": "GCCTAGCACTTCGAACTGAGTCTCGATTAGTGCTAGGTCTTGATTCGCTTGACGCTGCTG", "fitted relative affinity [z-score]": -0.0892}
{"Oligonucleotide": "GCCTAGCACGACGGTCTCGGATTCGGGACGTGCTAGGTCTTGATTCGCTTGACGCTGCTG", "fitted relative affinity [z-score]": 1.64}
{"Oligonucleotide": "GCCTAGCACTCACTAATCTCACTCTGACTGTGCTAGGTCTTGATTCGCTTGACGCTGCTG", "fitted relative affinity [z-score]": 0.391}
{"Oligonucleotide": "GCCTAGCACTTAGGTTTCGGGTTTCGGTTCGTGCTAGTCTTGATTCGCTTGACGCTGCTG", "fitted relative affinity [z-score]": 6.68}
{"data": "Further values, each from its own experiment"}
{"Substance": "PhoQ, residues 284 288 289 292 302 303 SQSLSM", "target": "PhoP, residues 12 14 15 18 19 VHSCL (Escherichia coli, UniProt P23836)", "assay": "Sort-seq, measured: YFP reporter", "test system": "E. coli", "setting": "PhoQ-PhoP variant library, together with: 10 µM Mg2+", "how to read": "relative to: high Mg2+ state, higher = stronger signaling", "quantity": "fold induction", "result": 11}
{"note": "Repeated from above (block 3):"}
{"Oligonucleotide": "GCCTAGCACTTCGAACTGAGTCTCGATTAGTGCTAGGTCTTGATTCGCTTGACGCTGCTG", "fitted relative affinity [z-score]": -0.0892}
{"Oligonucleotide": "GCCTAGCACTCACTAATCTCACTCTGACTGTGCTAGGTCTTGATTCGCTTGACGCTGCTG", "fitted relative affinity [z-score]": 0.391}
